Results from different studies.
Compare with care: the assays were run in different laboratories. ± gives the spread as reported.

SMILES	assay	system	conditions	Tmax [h]
C=C(NC(=O)c1csc(-c2nc3c(cc2O)-c2nc(cs2)C(=O)NC(C(C)O)C(=O)NC(=C(C)OC)c2nc(cs2)C(=O)NC2c4nc(cs4)C(=O)NC(COC(=O)c4c5c6c(cccc6n4O)COC(=O)C(OC4CC(C)(O)C(N(C)C)C(C)O4)C2OC5)c2nc-3cs2)n1)C(N)=O (centres unmarked)	–	Sprague-Dawley rat, male, plasma	intravenous infusion, 6 mg/kg, multiple doses, day 1	0.08
OC1(C(F)(F)F)CCN(c2nc(Nc3ccnc(C(F)(F)F)c3)nc(-c3cccc(C(F)(F)F)n3)n2)C1 (centres unmarked)	–	Sprague-Dawley rat, both sexes, plasma	oral gavage, 5 mg/kg, day 1	7.33 ± 3.93
COc1ccc([C@@H]2CC(=O)c3c(O)cc(O[C@@H]4O[C@H](CO)[C@@H](O)[C@H](O)[C@H]4O[C@@H]4O[C@@H](C)[C@H](O)[C@@H](O)[C@H]4O)cc3O2)cc1O	–	Sprague-Dawley rat, male, lean, plasma	intravenous, 4 mg/kg	0.833 ± 0.289
O=C(Nc1ccc(OC(F)(F)F)cc1)NC1CCN(C(=O)C2CC2)CC1	–	Sprague-Dawley rat, male, whole blood	oral, 0.1 mg/kg	4
O=C(O)CN1CCN(CC(=O)O)CCN(C(CCC(=O)NCc2ccc(NC(=S)NCCNC(=O)CCCc3ccc(I)cc3)cc2)C(=O)O)CC1 (centres unmarked)	dynamic PET/CT	Sprague-Dawley rats female, liver	intracisternal infusion, median	1.71
CCCC[C@H](OC(C)=O)c1ccccc1C(=O)O	–	Sprague-Dawley rats, both sexes, whole blood	intravenous, 20 mg/kg single dose	0.017
O=C(O)/C=C\c1cc2ccoc2cc1O[C@@H]1O[C@H](CO)[C@@H](O)[C@H](O)[C@H]1O	–	rat, plasma	oral, 217 mg/kg Pc extract, dosed as Pc extract	2.17 ± 1.15
O=C(O)CN1CCN(CC(=O)O)CCN(C(CCC(=O)NCc2ccc(NC(=S)NCCOCCOCCOCCNC(=O)CCCc3ccc(I)cc3)cc2)C(=O)O)CC1 (centres unmarked)	dynamic PET/CT	Sprague-Dawley rats female, liver	intracisternal infusion, median	1.83

Repeated from above:
SMILES	assay	system	conditions	Tmax [h]
O=C(O)CN1CCN(CC(=O)O)CCN(C(CCC(=O)NCc2ccc(NC(=S)NCCOCCOCCOCCNC(=O)CCCc3ccc(I)cc3)cc2)C(=O)O)CC1 (centres unmarked)	dynamic PET/CT	Sprague-Dawley rats female, liver	intracisternal infusion, median	1.83
